Published values collected from several papers.
Values joined by “and” are separate records of one study, mostly repeats; a detail may differ. ± marks the error that the study gave. Converted amounts (≈) assume the structure as drawn.

Cc1cc(C(=O)Nc2nc3cccc(C)c3n2[C@H]2CCCCN(C(=O)/C=C/CN(C)C)C2)ccn1  cells in G2 phase (Trypanosoma brucei; propidium iodide flow cytometry; bloodstream form; concentration not given, 48 h): 38.1%
CN(C(=O)c1ccn2ncc(-c3ccc(C(N)=O)cc3)c2c1)c1ccc(C#N)cn1  faecal Nluc luminescence (Cryptosporidium parvum; UGA1 Nluc, IFN-gamma knockout C57BL/6 mice, faeces; oral, 10 mg/kg daily, 216 h post infection, treatment days 3-9; higher means more parasites): 133 a.u. and 19 a.u. and 10 a.u. and 55 a.u. and 13 a.u.
C[N+]1=C2C(c3ccccc3)=[N+]([O-])c3ccccc3N2CCC1  MIC50 (Bacteroides fragilis; microbial growth): 2 µg/mL
CCOC(=O)C1(Cc2cc(F)c(F)c(F)c2)Oc2cc(F)ccc2N(Cc2cc(F)c(F)c(F)c2)C1=O (stereo not shown)  inhibition (Amaranthus retroflexus; fresh weight, greenhouse postemergence; postemergence, 150 g ai/ha, 21 days): 68.5 ± 4.28%
CCCCCCCCCCCCCC(=O)N[C@H]1C(=O)N[C@@H](CN)C(=O)N[C@@H](CO)C(=O)N[C@@H](Cc2ccc(O)cc2)C(=O)O[C@H]1C  MIC (Staphylococcus aureus; SH1000; no lipid): 2 µg/mL (≈ 3.09 µM)
CC(C)CS(=O)(=O)N[C@H]1CC[C@H](Nc2ncc3c(N4CCOCC4)n[nH]c3n2)CC1  EC50 (Leishmania donovani; cell growth; promastigotes, LdBOB; life-cycle stage comparison): 0.0114 ± 0.003 µM
CN(C)S(=O)(=O)c1ccc(S(=O)(=O)N2CCC(n3c(=O)[nH]c4ccccc43)CC2)cc1  rifampicin concentration (Escherichia coli; Keio wild type; concentration not given, 48 h): 15.6 µg/mL
CCc1cc(CCC(=O)O)nc(-c2nc(=O)c3ccc(F)cc3s2)c1  EC50 (Acinetobacter baumannii; cell growth, inhibitor; NCTC 13424 XDR; 5% CO2): > 100 µM
CN(CCO)CCO.O=C(O)C(Cl)Cl  inhibition (Amaranthus retroflexus; herbicidal activity; 15 mg/mL, 21 days, post-emergence greenhouse): -58%
FC(F)(F)c1cccc(CNc2nc(NC3CCN(Cc4ccccc4)CC3)c3nc[nH]c3n2)c1  mRNA fold change (Cryptococcus neoformans; RNA-seq, item: CNAG_06065; 48 µg/mL, 3 h; relative to: untreated): 1.86
CCc1nn(C)c2nc(-c3ccc(C(=O)O)cc3)nc(NCc3ccccc3)c12  parasite number (Cryptosporidium parvum; HCT-8; EC90, 0 h; relative to: DMSO control): 96.8% and 109% and 101% and 93.3%
NCCC[C@@H]1NC(=O)[C@@H](CCCN)NC(=O)[C@H](Cc2ccccc2)NC(=O)[C@@H](Cc2ccc(F)c(F)c2)NC(=O)[C@H](Cc2ccccc2)NC(=O)[C@@H](CCCN)NC1=O  IC90 (Balamuthia mandrillaris; parasite growth, ATP luminescence): > 20 µM
CC(C)[C@H]1NC(=O)[C@H](Cc2ccc(O)cc2)NC(=O)[C@@H](C(C)C)NC(=O)[C@@H](C)NC(=O)[C@H](CO)NC(=O)[C@@H](Cc2c(-c3ccc(-c4ccc5ccccc5c4)cc3)[nH]c3ccccc23)NC(=O)[C@@H](CO)NC1=O  MIC90 (Vibrio vulnificus; broth dilution): > 50 µM

Some of these lines once more:
CC(C)[C@H]1NC(=O)[C@H](Cc2ccc(O)cc2)NC(=O)[C@@H](C(C)C)NC(=O)[C@@H](C)NC(=O)[C@H](CO)NC(=O)[C@@H](Cc2c(-c3ccc(-c4ccc5ccccc5c4)cc3)[nH]c3ccccc23)NC(=O)[C@@H](CO)NC1=O  MIC90 (Vibrio vulnificus; broth dilution): > 50 µM
CC(C)CS(=O)(=O)N[C@H]1CC[C@H](Nc2ncc3c(N4CCOCC4)n[nH]c3n2)CC1  EC50 (Leishmania donovani; cell growth; promastigotes, LdBOB; life-cycle stage comparison): 0.0114 ± 0.003 µM
